Experimental data collected from several papers.
Every numbered part comes from another study and shows a few of its results, in no order. Positions count from the first letter of the parent shown.

Block 1
Target: CCNB3, cyclin fold, Cln2 fusion (human)
Technique: yeast growth competition, sequencing
Matrix: yeast
Notes: strong parent motif
Relative to: not given
Direction: higher = stronger binding
Parent: PKN2 docking peptide (human); VSAVRKLDFSDTM
| Change | normalised enrichment score |
| --- | --- |
| S10I | 0.389 |
| L7Q | 0.0848 |
| V4R | 3.83 |
| T12L | 1.51 |
| D8C | 0.891 |
| K6M | 0.339 |
| L7P | -0.0766 |
| A3N | 0.0936 |
| D11R | 1.65 |
| A3T | 0.558 |
| V4G | -0.0266 |
| S10A | 1.32 |
| D11E | 1.59 |
| R5T | 0.0427 |
| F9H | 0.154 |
| D8E | 1.05 |
| L7A | -0.11 |
| D8I | 0.703 |
| K6Q | 0.41 |
| K6G | 0.197 |
| V4S | 0.82 |
| V4T | 0.326 |
| F9E | 0.0528 |
| V4H | 0.141 |
| V4N | 0.45 |

Block 2
Target: RING finger protein unkempt homolog, zinc fingers 1-6, GST-SBP tag (UNK, Homo sapiens, UniProt Q9C0B0, residues 30-357)
Technique: RNA Bind-n-Seq
Form: RNA
Matrix: in vitro
Tested at: not given
Notes: RNA with constant flanks, ends assumed
Relative to: input RNA pool
Direction: higher = stronger binding
Residues (chain): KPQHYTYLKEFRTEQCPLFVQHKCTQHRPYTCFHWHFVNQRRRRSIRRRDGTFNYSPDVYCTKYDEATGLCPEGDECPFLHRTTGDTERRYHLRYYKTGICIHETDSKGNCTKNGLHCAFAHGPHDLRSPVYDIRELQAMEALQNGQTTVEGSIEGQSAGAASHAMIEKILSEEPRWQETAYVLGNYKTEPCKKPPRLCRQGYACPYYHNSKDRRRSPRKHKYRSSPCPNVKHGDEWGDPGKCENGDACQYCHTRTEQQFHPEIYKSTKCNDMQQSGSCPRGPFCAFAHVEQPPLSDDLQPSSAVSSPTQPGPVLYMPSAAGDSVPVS
| Sequence | bound/input enrichment |
| --- | --- |
| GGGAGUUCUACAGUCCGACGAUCCUUUGUGUUCAUGGUGGACUUUCACCAGAAAUACACACACUGGAUGAUAUUAGGAGAUCCGACCGAUUUAAAGAGCCACCUGCAUUUGGACCAAUGUGUGACUUGCUAUGGUCUGAUCCUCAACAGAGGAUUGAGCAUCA | 0.149 ratio |
| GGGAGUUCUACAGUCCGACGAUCAAAAAUUUGCAAGAAGAAAUUGACGCCUUAGAAUCCAGAGUGGAAUCAAUUCAGCGAGUGUCCGCAGAUUUGAAAGUUCAGUUGUAUGCAAAAUUCGGGAGCAACAUAAACCUUGAAGCUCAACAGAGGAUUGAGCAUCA | 0.243 ratio |
| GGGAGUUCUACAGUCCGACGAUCGUAGCAUCAACAUCUAUGAACAGAGAGUCUUCUAGAUCCCAUGCAGUCUUUACCAUCACAACCGAAUCAAUGGAGAAGAGCAGCGAGACCGUGAACAUCCGGACCUCCUUACUCAACCUGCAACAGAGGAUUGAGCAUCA | 0.111 ratio |
| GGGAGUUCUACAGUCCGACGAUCUCCCCUCUGAACCCCAUAUCUUCUGUUUCAUAAUGCAGAAGUAUUCUUUUCAAUUAUAUUGUCCGUGGACUUGUUUUAAUUUUAGAGAAACUUUGAGUACAGAUACUGUGAGCUUACAUUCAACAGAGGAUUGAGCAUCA | 0.277 ratio |
| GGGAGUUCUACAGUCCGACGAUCAGGGCCUCCAACAGGCAAAUUCAGGGAGGAUAGGUUUCAGGGAAUAUAAAUUUAUUUAAUAUCCGUGGUCUUUAAGUAUAAACUUGAUGUAAUUGGUUUGGGAGGGGGCAGUGAUGAUGACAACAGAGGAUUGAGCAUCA | 0.741 ratio |
| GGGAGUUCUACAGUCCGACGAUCAUCUAUACAACCAUCAACGCCCACCAGUGGUCAGAGACUGUGCAGCCAAUCAUGGAAGCCCUCCGAGAUGCAACAAGGAGACGCGCCUUUGCCCUGGUCUCUCAAGCUUAUACCUCCAUCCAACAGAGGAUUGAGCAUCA | 0.132 ratio |
| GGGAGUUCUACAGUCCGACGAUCAGUGCCUAUGAUUACACAAUACCACCUAUGGAGAAAGCUGUUGUGAAAACGGACAUUCAGACCGCGCUCCCUUCUGGGUGUUAUGGAAGAGUGGCUCCACGGUCAGGCUUGGCUGCAAAACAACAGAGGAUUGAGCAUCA | 0.187 ratio |
| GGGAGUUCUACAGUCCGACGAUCGAUGUCACUCAAGAGCAGCUGGGUGGUGCCAAGACCCACACCACUGUGUCAGGUGUGGCCCACCGAGCUUUCGACAAUGAUGUUGAUGCUCUGUGUAACCUGCGUGAAUUCUUCAAUUUCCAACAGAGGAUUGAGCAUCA | 0.0802 ratio |
| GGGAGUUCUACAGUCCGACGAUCUCUUGUUCAUCCCCUUGUAUUGUUUCUCCUUAUUGCUACAGUUAAUAGACAAAAAGGUAACUCCGACCCUUUUUUUUUUUUGGUUUGGCUUGAUAUUGUUUAGUAAAUGGCUAUACAAGUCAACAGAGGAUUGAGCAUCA | 1.53 ratio |
| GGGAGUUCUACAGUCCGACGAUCGCCAAGGCCAUUCAGCUGAACAGUAAUAGUGUUCAAGCUCUGCUACUUAAGGGAGCAGCACUCCGGAACAUGGGCAGAGUCCAAGAAGCAAUAAUCCACUUUCGGGAGGCCAUACGGCUCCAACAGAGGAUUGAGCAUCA | 0.125 ratio |
| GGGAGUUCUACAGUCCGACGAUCUAGUGAAUGGUUUCCCCAGUGUAUAUGAAUGUUUUAAGUGUCUCCAAUAGCUUAUGCAGUCCCGGAGCUUUCCAAUACUCAUUUAAUUAAGAUUUAAUCAUUUGCUAAUGGAAAUCUUACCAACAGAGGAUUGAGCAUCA | 0.614 ratio |

Block 3
Target: ABI1, truncated, D143A, DHFR fusion (Arabidopsis thaliana)
Technique: DHFR PCA, deep sequencing
Matrix: yeast
Notes: methotrexate growth selection, single substitutions
Together with: (+)-ABA 0.39 µM
Relative to: wild-type fitted maximum
Direction: higher = stronger binding
Parent: PYL1, truncated, DHFR fusion (Arabidopsis thaliana); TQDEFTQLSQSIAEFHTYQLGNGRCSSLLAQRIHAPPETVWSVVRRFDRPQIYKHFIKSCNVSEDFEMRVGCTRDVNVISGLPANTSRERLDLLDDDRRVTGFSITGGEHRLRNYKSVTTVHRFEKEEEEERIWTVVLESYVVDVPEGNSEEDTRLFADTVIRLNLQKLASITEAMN
| Change | relative binding score [%] |
| --- | --- |
| F15I | 0.624 |
| E38D | 42 |
| Q31I | 2.54 |
| S171L | 26.1 |
| A35Y | -15.7 |
| T120Q | -11.6 |
| Y53P | -9.34 |
| S87I | 52.9 |
| S26R | 0.338 |
| G21E | 58.1 |
| E130G | 50.1 |
| R123H | 52.8 |
| E14A | 2.04 |
| L156N | -18.7 |
| E109W | -11.7 |
| S117C | 15.8 |

Block 4
Target: Sal-like protein 4, full length isoform B (SALL4, Homo sapiens, UniProt Q9UJQ4-2, residues 1-616)
Technique: universal PBM
Form: double-stranded DNA, one strand shown
Matrix: in vitro
Tested at: not given
Notes: 8-mer, flanks averaged, mean of replicates
Direction: higher = stronger binding
| Sequence | E-score |
| --- | --- |
| GAACCGTC | -0.108 |
| GGGGCATA | 0.0703 |
| AGAGCTTA | 0.0268 |
| CGATAACA | 0.119 |
| TCCCTGAA | -0.00342 |
| CCTAGCAC | -0.0726 |
| AATGCGAG | 0.142 |
| ATAAGCTA | 0.256 |
| CTCTGAAG | -0.209 |
| GTAGATGA | 0.152 |
| AGCGGGAG | -0.169 |
| GTAGTGCA | 0.074 |
| CAAAAGCC | -0.0598 |
| AAGCTTAA | -0.0323 |
| AATCAGAT | 0.144 |
| CCAACGGC | -0.315 |
| GACGTTGC | -0.088 |

Single results of other studies
| Substance | target | assay | test system | setting | how to read | measurement | result |
| --- | --- | --- | --- | --- | --- | --- | --- |
| PhoQ, residues 284 288 289 292 302 303 SVHLDV | PhoP, residues 12 14 15 18 19 GQALL (Escherichia coli, UniProt P23836) | Sort-seq, refers to: YFP reporter | E. coli | PhoQ-PhoP variant library, together with: 10 µM Mg2+ | relative to: high Mg2+ state, higher = stronger signaling | fold induction | 8.79 |

Some of these lines once more (block 1):
| Change | normalised enrichment score |
| --- | --- |
| D8C | 0.891 |
| K6M | 0.339 |
| L7P | -0.0766 |
| A3N | 0.0936 |
